Published values from different studies.
Numbered parts are unrelated; each lists some results of a single study. Changes are numbered by the printed parent chain.

Series 1 — technique: aptamer microarray, sandwich; molecule type: DNA with 2'F-ANA; medium: in vitro; concentration: 200 nM; added: Cy3 exosite-II aptamer, 400 nM; direction: higher = stronger binding; strand: GGTTGGTGTGGTTGG
Target: Prothrombin, mature alpha-thrombin (F2, Homo sapiens, UniProt P00734)
Notes: whole 15-mer aptamer, many near background
Under “mean fluorescence intensity”, `2'F-ANA at 2 6 7 10 12 13 14 15` is recorded as 86.9 a.u.
Under “mean fluorescence intensity”, `2'F-ANA at 1 4 5 9 11 13 14 15` is recorded as 47 a.u.
`2'F-ANA at 1 5 8 9 10 12 13 14 15`: “mean fluorescence intensity” 48.7 a.u.
`2'F-ANA at 1 2 3 5 7 8 9 10 12 13 14 15`: “mean fluorescence intensity” 51.4 a.u.
Under “mean fluorescence intensity”, `2'F-ANA at 1 15` is recorded as 227 a.u.
Under “mean fluorescence intensity”, `2'F-ANA at 2 3 5 7 9 11 12` is recorded as 179 a.u.
`2'F-ANA at 1 2 3 4 5 6 8 11 12 14`: “mean fluorescence intensity” 58.2 a.u.
`2'F-ANA at 5 6 7 12 15`: “mean fluorescence intensity” 158 a.u.
Under “mean fluorescence intensity”, `2'F-ANA at 1 2 4 8 14 15` is recorded as 57.8 a.u.
Under “mean fluorescence intensity”, `2'F-ANA at 4 8 9 10 12` is recorded as 109 a.u.
`2'F-ANA at 4 7 11 12 13 14` — result for “mean fluorescence intensity”: 125 a.u.
For `2'F-ANA at 2 4 7 8 9 13 14 15`, “mean fluorescence intensity” read 94.4 a.u.
`2'F-ANA at 2 5 6 10 11 12 14 15` — result for “mean fluorescence intensity”: 49.2 a.u.
`2'F-ANA at 4 6 8 11 12 13 14`: “mean fluorescence intensity” 97.6 a.u.
Under “mean fluorescence intensity”, `2'F-ANA at 1 2 3 4 6 7 9 12 14` is recorded as 64.4 a.u.
Under “mean fluorescence intensity”, `2'F-ANA at 3 5 7 9 11` is recorded as 104 a.u.
`2'F-ANA at 3 5 6 7 14 15` — result for “mean fluorescence intensity”: 49.6 a.u.
Under “mean fluorescence intensity”, `2'F-ANA at 2 4 5 6 10 11 13 14 15` is recorded as 80.7 a.u.
`2'F-ANA at 1 3 4 5 6 7 9 10 13 14`: “mean fluorescence intensity” 46.8 a.u.
For `2'F-ANA at 1 3 5 7 8 9 11 12 13 14 15`, “mean fluorescence intensity” read 52.1 a.u.
`2'F-ANA at 1 4 5 7 8 10 12 15` — result for “mean fluorescence intensity”: 58.8 a.u.
Under “mean fluorescence intensity”, `2'F-ANA at 2 3 4 6 9 12 13 15` is recorded as 526 a.u.
`2'F-ANA at 1 2 4 5 10 12 13 14` — result for “mean fluorescence intensity”: 45.8 a.u.
For `2'F-ANA at 2 4 6 8 10 12 14 15`, “mean fluorescence intensity” read 83.7 a.u.
`2'F-ANA at 1 5 6 7 9 12`: “mean fluorescence intensity” 118 a.u.

Series 2 — technique: protein-binding microarray; molecule type: double-stranded DNA, one strand shown; medium: in vitro; concentration: 940 nM top; notes: 60-bp whole probe; added: salmon DNA 0.4 mg/ml; reference: random background probes; direction: higher = stronger binding; constant ends, left off below: GCCTAGCAC … GTCTTGATTCGCTTGACGCTGCTG
Target: Interferon regulatory factor 5, full length, phosphomimetic (IRF5, Homo sapiens, UniProt Q13568-2, residues 1-514, S451D/S453D/S456D/S462D)
For `TCATTTTTCATTGTTTTACTGTGCTAG`, “fitted relative affinity” read 1.62 z-score.
Under “fitted relative affinity”, `TTAGGTATCCTTCTCATTTAGTGCTAG` is recorded as 0.98 z-score.
For `TCATGGTTCTTGCTTGGTACTGTGCTA`, “fitted relative affinity” read 0.324 z-score.
For `GACGGTATCGGTTTCGGTACGTGCTAG`, “fitted relative affinity” read 11.6 z-score.
`TCAGATTTTGCTTTCATACTGTGCTAG`: “fitted relative affinity” 0.886 z-score.
For `GACGGTTTCCTACGGCTGACGTGCTAG`, “fitted relative affinity” read 0.348 z-score.
`TTTGATCTCAGACTGGATTAGTGCTAG` — result for “fitted relative affinity”: 0.056 z-score.
`TTAGGACTGGGTCTCTGTTAGTGCTAG`: “fitted relative affinity” 0.0458 z-score.
`GACGCTCTCAGTCTCGAGACGTGCTAG`: “fitted relative affinity” 1.99 z-score.
`TCATTTAGAAATTTCTTACTGTGCTAG` — result for “fitted relative affinity”: 0.209 z-score.
For `GACGGTATCCTTATCCTGAGGTGCTAG`, “fitted relative affinity” read 0.0964 z-score.
`ACAGGACAGTCCCATCTACCGTGCTAG`: “fitted relative affinity” -0.342 z-score.
For `ATGTCTTCCCCTCTCTTTCCGTGCTAG`, “fitted relative affinity” read 1.09 z-score.
`TTCTTAATGCTTCTGGGCCAGTGCTAG` — result for “fitted relative affinity”: -0.212 z-score.
For `TCTACTTCTCTTTTGGCTTTGTGCTAG`, “fitted relative affinity” read 1.28 z-score.
Under “fitted relative affinity”, `TTAGATTCCAGTTTCGACTAGTGCTAG` is recorded as 5.35 z-score.
Under “fitted relative affinity”, `TTAGGTTCCGACTATCGGTTAGTGCTA` is recorded as 0.925 z-score.
`TTAGATATCGGGTATCGACTAGTGCTA`: “fitted relative affinity” 1.34 z-score.
`TTAGGCTTCGGTTCCGGTTAGTGCTAG`: “fitted relative affinity” 1.26 z-score.
`TTAGATTTCGGGTTTCGACTAGTGCTA` — result for “fitted relative affinity”: 3.56 z-score.
`TTAGGTTTCGGGACTGGGTTGGTGCTA`: “fitted relative affinity” 8.11 z-score.
`TTCGATCTCAGTATCGATTAGTGCTAG`: “fitted relative affinity” 5.48 z-score.
Under “fitted relative affinity”, `GCAGGAGAGACAGAAGTTATGTGCTAG` is recorded as -0.797 z-score.
`AACGGTATCGGTTTCGGGACGTGCTAG` — result for “fitted relative affinity”: 9.35 z-score.
For `TATGTTTTTCATTTTGTTCAGTGCTAG`, “fitted relative affinity” read 1.21 z-score.

Series 3 — target: CCNA1, cyclin fold, Cln2 fusion (human); technique: yeast growth competition, sequencing; medium: yeast; notes: weak parent motif; reference: not given; direction: higher = stronger binding
Starting sequence: CDC6 docking peptide (human); TLKGRRLVFDNQL
Under “normalised enrichment score”, `TLKGRGLVFDNQL [R6G]` is recorded as -0.00799.
`TLKGRRLRFDNQL [V8R]`: “normalised enrichment score” 0.373.
Under “normalised enrichment score”, `ILKGRRLVFDNQL [T1I]` is recorded as 0.142.
`TLKGRRLVQDNQL [F9Q]` — result for “normalised enrichment score”: 0.37.
`TLKGRRLVFDNKL [Q12K]`: “normalised enrichment score” -0.143.
For `TLKGRRLVFDNHL [Q12H]`, “normalised enrichment score” read 0.338.
For `TLKGRRLNFDNQL [V8N]`, “normalised enrichment score” read 0.32.
Under “normalised enrichment score”, `QLKGRRLVFDNQL [T1Q]` is recorded as -0.0858.
For `TLKGRTLVFDNQL [R6T]`, “normalised enrichment score” read 0.359.
`TLKGRRCVFDNQL [L7C]`: “normalised enrichment score” 0.106.
Under “normalised enrichment score”, `TLKGRRLSFDNQL [V8S]` is recorded as 0.139.
For `DLKGRRLVFDNQL [T1D]`, “normalised enrichment score” read -0.0955.
`TLKGRRLVFDNQF [L13F]`: “normalised enrichment score” 0.499.
`TRKGRRLVFDNQL [L2R]`: “normalised enrichment score” 0.567.
`TLKGRRLMFDNQL [V8M]` — result for “normalised enrichment score”: 0.111.
`HLKGRRLVFDNQL [T1H]` — result for “normalised enrichment score”: 0.128.
For `TLDGRRLVFDNQL [K3D]`, “normalised enrichment score” read 0.0661.
`PLKGRRLVFDNQL [T1P]`: “normalised enrichment score” 0.274.
`TLKGRRLVFFNQL [D10F]`: “normalised enrichment score” 0.312.
Under “normalised enrichment score”, `TLKGHRLVFDNQL [R5H]` is recorded as -0.147.

Series 4 — technique: RNA Bind-n-Seq; molecule type: RNA; medium: in vitro; concentration: 365 nM; reference: no-protein control; direction: higher = stronger binding
Target: RNA binding protein fox-1 homolog 2, RRM domain, GST-SBP tag (RBFOX2, Homo sapiens, UniProt O43251-10, residues 100-194)
Notes: natural RNA segment, single round, ends assumed
Residues (chain): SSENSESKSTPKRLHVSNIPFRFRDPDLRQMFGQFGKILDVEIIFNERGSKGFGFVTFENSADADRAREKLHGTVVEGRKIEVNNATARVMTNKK
`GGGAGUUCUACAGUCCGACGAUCCUUCAGUGAAGAGGACAAAUAGUUUAUUUAAAGCAUUUGUUCCAAUAAAAUAACUAGAGGGAAACUUGGAUGCUAAAAUUCCAUAAGUAGAAAAAUCUUCCUGGCACUUGUGGAAUUCUCGGGUGCCAA`: “RBNS enrichment (R)” 0.357.
Under “RBNS enrichment (R)”, `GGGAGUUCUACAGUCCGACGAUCUUCGACGCCAGACUAAACAGCUCCGGUGGGUUAAUGAGGAAGAACACAAAACUGACACCCCAUCUGGGCUGCGCUCCCCGGGGGGCCUGCAGACCCCAGGACUGCUGGCAUGGAAUUCUCGGGUGCCAA` is recorded as 2.81.
`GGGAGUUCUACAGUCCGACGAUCCGCCGAGGUCGGAAGGAGGGCACCUCAGGCAAGAGGAGACUGAGACUUUAGAGCCAAGGCCUGGCAGUCCUGCAGCCAGCCUCUGCUCGCAGCCGCAGACGGUCUGGACAUGGAAUUCUCGGGUGCCAA` — result for “RBNS enrichment (R)”: 0.433.
Under “RBNS enrichment (R)”, `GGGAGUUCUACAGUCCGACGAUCGCCACCGUGGGACAUCAAGUGGAAGAACUUGUUUGCUUGAAAGUAUCUCAGACCCAAGGCACCUCAGGUCUCUUUGCUGUGCCUCCACUAUAUUGUCGUGUGGGUGUGUGUGGAAUUCUCGGGUGCCAA` is recorded as 0.481.
`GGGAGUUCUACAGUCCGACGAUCCCUUUAAAACUAAUCUCAGAAAAAUUUUUGGUGCCCAUGCAGCUGUAGUUGUUCACUGCUUUCCUGGAUGGAUGGGACUCUUAUGUCAUAACUUCUGUUACUCCUUUGGCUGGAAUUCUCGGGUGCCAA` — result for “RBNS enrichment (R)”: 0.361.
For `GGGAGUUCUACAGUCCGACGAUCUCACACGCUGUAUGGAAGGGUGUGGGUGUGUGUGAAGGGGCGAGUGGAGACACUGUGUGUAUCUCUAGAUAAGAAGAUAUGCACCACGUUGAAAAUACUCAGUGUAGAUCUGGAAUUCUCGGGUGCCAA`, “RBNS enrichment (R)” read 0.479.
`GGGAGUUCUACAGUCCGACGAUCUCGGCAUUCAGGGAACAGUUUCCUUAGCGGCCCCUGGUCACAUGUCAUCGGGCUGGGCAGGAAGCGUCCCUGAUUGCGUGCUCCACUUCUCCCUCUCAGGAAGCCCAGUUUGGAAUUCUCGGGUGCCAA` — result for “RBNS enrichment (R)”: 0.251.
`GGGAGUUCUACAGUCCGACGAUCUGAGAGCCUGGCCAGGUGGCCCUCCGUGUGAGGUCAUGGUCACAGCAUAGUUUGGAGCUAGGGAGGGACUGUCAGCCUGGAGGUUUGGAGACUCAUUCUGGAAUCUAGUGUGGAAUUCUCGGGUGCCAA` — result for “RBNS enrichment (R)”: 2.5.
`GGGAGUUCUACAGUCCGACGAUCUAUUACUCAUUAACCAGAUAACAAGUGAAUAUGCUGUAGCAUCAACAUAAUUCAAAAGAGUAAAGAAAUGGCUAGGAAUGAGGUAGUUGUGUAAUUAUUUCUUCUCUUACUGGAAUUCUCGGGUGCCAA`: “RBNS enrichment (R)” 0.372.
Under “RBNS enrichment (R)”, `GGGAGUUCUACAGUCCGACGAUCCAAAAGAUUUGUGUAUGCAUUGCCUAAUUAGAGUAGGGGGAGAAGGGCAACUAUUAUUAUCCCUAUUUUACAAAACUGAGGCUUAGUGAGGUUCAGCCACAUGCCUAGACUGGAAUUCUCGGGUGCCAA` is recorded as 0.375.
`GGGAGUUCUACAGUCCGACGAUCAAAGACUAUUAAUCCCUCCAGCCUGAUGACCAGUUCUCAGCUGUGGUGUGGCAGCUGAGGAAUUGGGUUUCGGGGAGAGUGACUUUUUAAAAAGGACUUAAUUUCUACUAUGGAAUUCUCGGGUGCCAA`: “RBNS enrichment (R)” 0.674.
For `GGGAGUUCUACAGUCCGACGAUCGUGUCUGCAGGGUUUGUCAGUACUCGUCAAAGCCAAGUCCAAUUAAAAAAAAAAGUCUUUGCCCUCCAAUUUGUGUUUGAUGUUGACUUUCAGUAUGGGUAAAAAUAGGCUGGAAUUCUCGGGUGCCAA`, “RBNS enrichment (R)” read 0.534.

Excerpt of the above (series 1):
Under “mean fluorescence intensity”, `2'F-ANA at 2 3 5 7 9 11 12` is recorded as 179 a.u.
Under “mean fluorescence intensity”, `2'F-ANA at 3 5 7 9 11` is recorded as 104 a.u.
`2'F-ANA at 1 2 3 4 5 6 8 11 12 14`: “mean fluorescence intensity” 58.2 a.u.
Under “mean fluorescence intensity”, `2'F-ANA at 1 4 5 9 11 13 14 15` is recorded as 47 a.u.
Under “mean fluorescence intensity”, `2'F-ANA at 1 15` is recorded as 227 a.u.
Under “mean fluorescence intensity”, `2'F-ANA at 4 8 9 10 12` is recorded as 109 a.u.
`2'F-ANA at 1 2 3 5 7 8 9 10 12 13 14 15`: “mean fluorescence intensity” 51.4 a.u.
